Results from different studies.
Parts stem from different laboratories: compare values within a part only. Changes are numbered by the printed parent chain.

Block 1
Target: Histone acetyltransferase KAT6A, both winged helices, GST fusion (KAT6A, Homo sapiens, UniProt Q92794, residues 1-181)
Method: protein binding microarray
Form: double-stranded DNA, one strand shown
Sample: in vitro
Concentration: not given
Notes: 8-mer, flanks averaged, mean of 2 arrays, mostly near background
Relative to: not given
Reading: higher = stronger binding
Quantity: E-score
Construct (chain): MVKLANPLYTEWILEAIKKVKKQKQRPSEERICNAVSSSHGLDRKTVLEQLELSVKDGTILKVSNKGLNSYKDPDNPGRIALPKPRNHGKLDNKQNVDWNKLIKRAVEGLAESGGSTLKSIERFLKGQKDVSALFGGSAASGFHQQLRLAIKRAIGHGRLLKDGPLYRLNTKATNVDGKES
AACTTCGT: -0.108
CGGCCACA: 0.184
ACCCGTAT: 0.229
GAATGCCA: -0.0475
TAGTAAGA: -0.088
GAATGTCC: 0.0245
GAGCGAGA: -0.0085
CGCGGATC: 0.294

Block 2
Target: RING finger protein unkempt homolog, zinc fingers 1-6, GST-SBP tag (UNK, Homo sapiens, UniProt Q9C0B0, residues 30-357)
Chain of UniProt Q9C0B0 (30-357, looked up): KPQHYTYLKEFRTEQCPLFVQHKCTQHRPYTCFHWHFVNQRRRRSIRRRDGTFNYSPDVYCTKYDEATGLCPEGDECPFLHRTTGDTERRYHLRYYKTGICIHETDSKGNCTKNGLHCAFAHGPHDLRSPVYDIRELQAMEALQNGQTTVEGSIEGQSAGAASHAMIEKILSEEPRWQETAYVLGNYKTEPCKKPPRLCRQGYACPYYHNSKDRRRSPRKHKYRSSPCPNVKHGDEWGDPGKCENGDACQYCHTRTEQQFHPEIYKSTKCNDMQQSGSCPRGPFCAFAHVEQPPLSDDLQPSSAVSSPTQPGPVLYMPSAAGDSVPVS
Method: RNA Bind-n-Seq
Form: RNA
Sample: in vitro
Concentration: not given
Notes: RNA with constant flanks, human-mouse chimeric sites, ends assumed
Relative to: input RNA pool
Reading: higher = stronger binding
Quantity: bound/input enrichment
All sequences stand within: GGGAGUUCUACAGUCCGACGAUC … CAACAGAGGAUUGAGCAUCA
GAAACAUUUAAAUUUAAAGAAGCUGUUGUUUUAGGGAGUACGGACUUUCUAGAAGAUGAUAUAGAGAAAAUUGUAGAAGAACUGGGGAAAGAGUAUAAGGGCAACGCCUACCAUCUGAUG: 2.9 ratio
UCAGGAACCCAGACAAACAUGAAUGUAAAUGAAGUCAUUAGCAAUAGAGCAAUUGAAAUGUUAGGAGGUGAACUUGGCAGCAAGAAGCCUGUGCACCCCAACGAUCAUGUUAACAAAAGC: 0.746 ratio
GUCAACAGCUGCCUCAACCCCAUCCUCUACGCCUUCCUGGAUGAGAACUUCAAGGCCUGCUUCCGCAAGUUCUGCUGUGCAUCUGCCCUGCGCCGGGAGAUGCAGGUUUCUGAUCGUGUG: 0.222 ratio
UACUACUAUGAUGGUGAUAUUGGCAAUUAUUAUUAUGGCCAGGGUCAUCCCAUGAAGCCUCAUAGAAUCCGCAUGACUCAUAACUUGCUGCUAAAUUAUGGUUUAUACAGAAAAAUGGAA: 0.113 ratio
GAGUCGAUUAUGGAAACAACAAUUCGUUUUACAAAAACCUCAGUGUUCACUUGCUUGGCGAUAGCAUUGGGGUUUUAUAGGUUCUGGAAGGAGAACUGACGAUGAUGCUGCCGCUGCUGC: 0.27 ratio

Block 3
Target: CCND2, cyclin fold, Cln2 fusion (human)
Method: yeast growth competition, sequencing
Sample: yeast
Notes: weak parent motif
Relative to: not given
Reading: higher = stronger binding
Quantity: normalised enrichment score
Starting sequence: SLBP docking peptide (human); ARYKRKLLINDFG; partner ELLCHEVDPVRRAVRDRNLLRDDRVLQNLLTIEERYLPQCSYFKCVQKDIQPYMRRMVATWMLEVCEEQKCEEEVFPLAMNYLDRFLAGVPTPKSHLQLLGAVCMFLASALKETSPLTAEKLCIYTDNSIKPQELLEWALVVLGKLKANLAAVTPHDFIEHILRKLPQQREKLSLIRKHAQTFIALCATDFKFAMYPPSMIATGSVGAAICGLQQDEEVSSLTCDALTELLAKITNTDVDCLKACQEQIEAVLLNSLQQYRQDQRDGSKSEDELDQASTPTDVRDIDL
R5G: 0.119
I9E: 0.00953
R2T: 0.791
L8V: 0.547
F12N: 0.442
K4H: 0.519

Mixed results
PhoQ, residues 284 288 289 292 302 303 GANMMA
fold induction (PhoP, residues 12 14 15 18 19 HLGGL (Escherichia coli, UniProt P23836); Sort-seq, refers to: YFP reporter; E. coli; PhoQ-PhoP variant library, added: 10 µM Mg2+; relative to: high Mg2+ state, higher = stronger signaling): 1.33

Some of these lines once more (block 2):
UACUACUAUGAUGGUGAUAUUGGCAAUUAUUAUUAUGGCCAGGGUCAUCCCAUGAAGCCUCAUAGAAUCCGCAUGACUCAUAACUUGCUGCUAAAUUAUGGUUUAUACAGAAAAAUGGAA: 0.113 ratio
